# Results of several laboratories.
# ± marks the error that the study gave.
SMILES,cell line,test,conditions,scale,measurement,value
Cc1cc(SCc2sc(-c3cccc(C(F)(F)F)c3)nc2C)ccc1OCC(=O)O,HEK293T,,18 h,,CC50,> 50 µM
O=C(/C=C/c1ccc(O)c(OC(F)(F)F)c1)C(CCOCCO)C(=O)/C=C/c1ccc(O)c(OC(F)(F)F)c1,SH-SY5Y,MTT,"0.9 µM, 24 h",,viability,98.2 ± 3.6%
COc1cc([C@@H]2c3cc4c(cc3[C@H](C=C(C)C)[C@H]3COC(=O)[C@H]23)OCO4)cc(OC)c1OC,HepG2,Alamar Blue,48 h,,CC50,33.1 ± 2.1 µM
Cc1cc(SCc2sc(-c3ccc(N(C)C)cc3)nc2C)ccc1OCC(=O)O,HEK293T,,18 h,,CC50,> 50 µM
COC(=O)[C@@H]1C(C=Nc2cncnc2NC(C)=O)=Cc2cc3c(cc2[C@H]1c1cc(OC)c(OC)c(OC)c1)OCO3,mouse splenocytes uninfected,Alamar Blue,48 h,,CC50,> 100 µM
O=C(O)CCC(C(=O)/C=C/c1ccc(O)c(OC(F)(F)F)c1)C(=O)/C=C/c1ccc(O)c(OC(F)(F)F)c1,SH-SY5Y,MTT,"0.9 µM, 24 h",,viability,99.4 ± 2.2%
Cc1cc(SCc2sc(-c3c(C)noc3C)nc2C)ccc1OCC(=O)O,HEK293T,,18 h,,CC50,> 100 µM
O=C(/C=C/c1ccc(O)c(OC(F)(F)F)c1)C(CCOCCOC1CCCCO1)C(=O)/C=C/c1ccc(O)c(OC(F)(F)F)c1 (stereo not shown),SH-SY5Y,MTT,"0.9 µM, 24 h",,viability,94.2 ± 4.1%
Cc1ccccc1OCCCSCc1nc2ccccc2[nH]1,HCT-116 tumour organoids,"cytotoxicity, 3D culture",72 h,,IC50,27.3 µM
COc1cc([C@@H]2c3cc4c(cc3[C@H](CC(C)C)[C@H]3COC(=O)[C@H]23)OCO4)cc(OC)c1OC,HepG2,Alamar Blue,48 h,,CC50,> 100 µM
COC(=O)CCCC(C(=O)/C=C/c1ccc(O)c(OC(F)(F)F)c1)C(=O)/C=C/c1ccc(O)c(OC(F)(F)F)c1,SH-SY5Y,MTT,"0.9 µM, 24 h",,viability,98.2 ± 2%
CCOC(=O)COC(=O)[C@@H]1C(C=O)=Cc2cc3c(cc2[C@H]1c1cc(OC)c(OC)c(OC)c1)OCO3,mouse splenocytes uninfected,Alamar Blue,48 h,,CC50,> 100 µM
O=C(CCN(CCC(=O)N[C@@H](Cc1c[nH]c2ccccc12)C(=O)O)C(=O)CCN(CCC(=O)N(CCC(=O)N[C@@H](Cc1c[nH]c2ccccc12)C(=O)O)CCC(=O)N[C@@H](Cc1c[nH]c2ccccc12)C(=O)O)C(=O)CCOCC(COCCC(=O)N(CCC(=O)N(CCC(=O)N[C@@H](Cc1c[nH]c2ccccc12)C(=O)O)CCC(=O)N[C@@H](Cc1c[nH]c2ccccc12)C(=O)O)CCC(=O)N(CCC(=O)N[C@@H](Cc1c[nH]c2ccccc12)C(=O)O)CCC(=O)N[C@@H](Cc1c[nH]c2ccccc12)C(=O)O)(COCCC(=O)N(CCC(=O)N(CCC(=O)N[C@@H](Cc1c[nH]c2ccccc12)C(=O)O)CCC(=O)N[C@@H](Cc1c[nH]c2ccccc12)C(=O)O)CCC(=O)N(CCC(=O)N[C@@H](Cc1c[nH]c2ccccc12)C(=O)O)CCC(=O)N[C@@H](Cc1c[nH]c2ccccc12)C(=O)O)COCCC(=O)N(CCC(=O)N(CCC(=O)N[C@@H](Cc1c[nH]c2ccccc12)C(=O)O)CCC(=O)N[C@@H](Cc1c[nH]c2ccccc12)C(=O)O)CCC(=O)N(CCC(=O)N[C@@H](Cc1c[nH]c2ccccc12)C(=O)O)CCC(=O)N[C@@H](Cc1c[nH]c2ccccc12)C(=O)O)N[C@@H](Cc1c[nH]c2ccccc12)C(=O)O,HEL or HeLa,cell viability,,,CC50,> 100 µM
O=C(/C=C/c1ccc(O)c(OC(F)(F)F)c1)C1=C(/C=C/c2ccc(O)c(OC(F)(F)F)c2)OCCC1,SH-SY5Y,MTT,"0.9 µM, 24 h",,viability,95.9 ± 3.1%
Cc1cc(SCc2sc(-c3ccc(C(F)(F)F)c(Cl)c3)nc2C)ccc1OCC(=O)O,HEK293T,,18 h,,CC50,> 33 µM
COCOCCCC(C(=O)/C=C/c1ccc(O)c(OC(F)(F)F)c1)C(=O)/C=C/c1ccc(O)c(OC(F)(F)F)c1,SH-SY5Y,MTT,"0.9 µM, 24 h",,viability,89 ± 12.7%
CCOc1ccccc1Nc1nnc(SCC(=O)Nc2cc(F)ccc2F)s1,Jurkat,MTS,"500 µM, 24 h",baseline: control,viability,~60%
O=C1CCC(N2Cc3cc(-c4nc5ccccn5c4Nc4ccc5c(c4)OCCO5)ccc3C2=O)C(=O)N1 (stereo not shown),MOLT-4,"cell viability, CellTiter-Glo",72 h,,EC50,0.005 µM
CN(C(=O)CSc1nnc(Nc2ccccc2F)s1)c1ccccc1,Jurkat,MTS,,,concentration reducing viability,≥ 30 µM
COC(=O)[C@@H]1C(C=Nc2cc(C)ccc2O)=Cc2cc3c(cc2[C@H]1c1cc(OC)c(OC)c(OC)c1)OCO3,HepG2,Alamar Blue,48 h,,CC50,> 100 µM
CC(C)OC(=O)CCC(C(=O)/C=C/c1ccc(O)c(OC(F)(F)F)c1)C(=O)/C=C/c1ccc(O)c(OC(F)(F)F)c1,SH-SY5Y,MTT,"0.9 µM, 24 h",,viability,90.9 ± 0.8%
Cc1cc(SCc2sc(-c3ccc4ccn(C)c4c3)nc2C)ccc1OCC(=O)O,HEK293T,,18 h,,CC50,> 100 µM
CN(C)C(=O)CCC(C(=O)/C=C/c1ccc(O)c(OC(F)(F)F)c1)C(=O)/C=C/c1ccc(O)c(OC(F)(F)F)c1,SH-SY5Y,MTT,"0.9 µM, 24 h",,viability,98.6 ± 3.1%
COc1cc([C@@H]2c3cc4c(cc3C=C(C=O)[C@H]2C(=O)OCc2ccc(CBr)cc2)OCO4)cc(OC)c1OC,mouse splenocytes uninfected,Alamar Blue,48 h,,CC50,34.1 ± 3.5 µM
Cc1cc(SCc2sc(-c3ccc(C(F)(F)F)cc3Cl)nc2C)ccc1OCC(=O)O,HEK293T,,18 h,,CC50,> 50 µM
NC(=O)c1ccc(-n2cccc2Cc2ccccc2F)cc1N[C@H]1CC[C@H](O)CC1,MDA-MB-231,,"25 µM, 72 h",,viability,> 95%
Cc1n[nH]c(C)c1CCOC(=O)c1cccc2c1oc(=O)n2C,Jurkat,MTS,up to 100 µM,,viability,> 90%
Cc1nc(-c2ccc(C(F)(F)F)cc2)sc1CSc1ccc(CCC(=O)O)cc1,HEK293T,,18 h,,CC50,> 100 µM
COc1cc([C@@H]2c3cc4c(cc3[C@@H](OC3CCCCC3)[C@H]3COC(=O)[C@H]23)OCO4)cc(OC)c1OC,mouse splenocytes uninfected,Alamar Blue,48 h,,CC50,11.4 ± 2 µM
CCOc1ccc(S(=O)(=O)NC(=O)Cc2ccc(I)cc2)cc1Br,THP1-Dual,ATP luminescence,100 µM,,viability decrease,~20%
C[N+](C)=c1ccc2c(-c3ccccc3)c3cc4c5c(c3[se]c-2c1)CCCN5CCC4,MDCKII-MDR1,,,baseline: without inhibitor over with inhibitor,efflux ratio,17
COc1ccccc1-c1nc(C)c(CSc2ccc(OCC(=O)O)c(C)c2)s1,HEK293T,,18 h,,CC50,> 100 µM
COC(=O)[C@@H]1C(c2nc3ccccc3s2)=Cc2cc3c(cc2[C@H]1c1cc(OC)c(OC)c(OC)c1)OCO3,mouse splenocytes uninfected,Alamar Blue,48 h,,CC50,15.6 ± 0.6 µM
O=C1Nc2cccc(C#CC3(O)CCNCC3)c2/C1=C/c1cc2ccccc2[nH]1,C8161.9 melanoma cells,,"concentration not given, several days",,viability,no effect
